Measurements collected from several papers.
Compare with care: the assays were run in different laboratories.
Target: Serine/threonine-protein kinase WNK3 (WNK3, Homo sapiens, UniProt Q9BYP7)

CN1CC[C@@H](COc2cnc(C#N)cc2-c2ccn3nc(NC(=O)C4CC4)cc3c2)C1 gave an inhibition of -2% (enzyme activity, inhibitor; 1 µM).
Cc1cnc2nc1Nc1cccc(c1)COC/C=C/COCc1cc(ccc1OCCN1CCOCC1)N2 gave a remaining binding of 100% (binding, competition with immobilised ligand; 0.1 µM).
With COc1ccc(NC(=O)Nc2ccc3c(c2)C(=O)N(C(C)CO)CC(C)C(CN(C)Cc2ccc4c(c2)OCO4)O3)cc1 (stereo not shown) the remaining activity was 102% (kinase activity, KinaseProfiler; 0.03 µM, species human; relative to: control).
CCN1CCN(Cc2ccc(C(=O)Nc3ccc(C)c(NCc4cnc5[nH]ccc5c4OC)c3)cc2C(F)(F)F)CC1 gave a remaining binding of 100% (binding, competition with immobilised ligand; 1 µM).
The remaining binding of COc1cc(Nc2nccc(-c3cnn4nc(OC)ccc34)n2)cc(C(F)(F)F)c1 is reported as 78% (binding, competition with immobilised ligand; 1 µM).
With C=CC(=O)N1CCCC(n2c(=O)c3ncccc3n(Cc3ccc(Oc4ccccc4)cc3)c2=O)C1 (stereo not shown) the remaining binding was 84% (cell-free assay, competition with immobilised ligand; 1 µM).
O=C(Cc1ccc(OCc2ccccc2)cc1)NC1(C(=O)O)CCN(C(=O)c2ccc(-c3cccc(Cl)c3)cc2)CC1: “activity vs control” 123% (enzyme activity, inhibitor; 10 µM).
COc1c(OCCCN2CCOCC2)ccc2c1N=C(NC(=O)c1cnc(N)nc1)N1CCN=C21 has a remaining activity of 108% (kinase activity, inhibitor; 1 µM; relative to: untreated control).
With NC(=O)C[C@H]1CCc2sc3ncnc(O[C@H]4CC[C@H](N5CCOCC5)CC4)c3c21 the inhibition was 5% (enzyme activity, inhibitor; 10 µM).
CNC1C[S+]2CC[S+]3CC[S+](C1)[Ru-4]321([N]=C=S)[n]2c3ccc(OC)cc3c3c4c(c5cc(F)c[n+]1c5c32)C(=O)NC4=O (stereo not shown) gave a remaining binding of 100% (KinomeScan; 0.1 µM; relative to: untreated).
With Nc1ncc(-c2cc(-c3cnn(CC(F)(F)F)c3)ncc2F)nc1C(=O)NC1CNCC(F)C1 (stereo not shown) the remaining activity was 105% (enzyme activity; 1 µM; relative to: DMSO control).
With C=CC(=O)N1Cc2nc(-c3cc(-c4cc(Cl)cnc4Cl)c(F)cc3F)n(-c3ccncn3)c2C1 the inhibition was 3.9% (cell-free assay, inhibitor; 1 µM).
Nc1ncc2c(n1)-c1c([nH]c3ccc(C4=CCOCC4)cc13)CCC2 has a remaining binding of 87% (binding, competition with immobilised ligand; 1 µM).

For quick reference, copied from above:
Cc1cnc2nc1Nc1cccc(c1)COC/C=C/COCc1cc(ccc1OCCN1CCOCC1)N2 gave a remaining binding of 100% (binding, competition with immobilised ligand; 0.1 µM).
